Experimental data of several laboratories.
Parts stem from different laboratories: compare values within a part only.

Series 1
Target: Protein max, full length (MAX, Homo sapiens, UniProt P61244-2, residues 1-151)
Method: protein-binding microarray
Form: double-stranded DNA, one strand shown
Matrix: in vitro
Concentration: not given
Setting: k-mer, scored over probes, only values ≥0.25
Direction: higher = stronger binding
Endpoint: E-score
Strand = AGCGTGCG; value = 0.43
Strand = CATGGAAC; value = 0.291
Strand = CTGTGCGC; value = 0.267

Series 2
Target: Interferon regulatory factor 5, full length, phosphomimetic (IRF5, Homo sapiens, UniProt Q13568-2, residues 1-514, K96S/S451D/S453D/S456D/S462D)
Method: protein-binding microarray
Form: double-stranded DNA, one strand shown
Matrix: in vitro
Concentration: 250 nM
Setting: 60-bp whole probe
Added: salmon DNA 0.4 mg/ml
Baseline: random background probes
Direction: higher = stronger binding
Endpoint: log fluorescence
Strand = GCCTAGCACGACGGTTCCGGTTTCGGTACGTGCTAGGTCTTGATTCGCTTGACGCTGCTG; value = 8.09 z-score
Strand = GCCTAGCACGACGGACCGCTTTTCCTGACGTGCTAGGTCTTGATTCGCTTGACGCTGCTG; value = -0.274 z-score
Strand = GCCTAGCACGACGCACTGGGGTTTCGGGACGTGCTAGTCTTGATTCGCTTGACGCTGCTG; value = 1.21 z-score

Series 3
Target: Centromere-binding protein 1, full length, His-tagged (CBF1, Saccharomyces cerevisiae, UniProt P17106, residues 1-351)
Chain of UniProt P17106 (whole entry, looked up): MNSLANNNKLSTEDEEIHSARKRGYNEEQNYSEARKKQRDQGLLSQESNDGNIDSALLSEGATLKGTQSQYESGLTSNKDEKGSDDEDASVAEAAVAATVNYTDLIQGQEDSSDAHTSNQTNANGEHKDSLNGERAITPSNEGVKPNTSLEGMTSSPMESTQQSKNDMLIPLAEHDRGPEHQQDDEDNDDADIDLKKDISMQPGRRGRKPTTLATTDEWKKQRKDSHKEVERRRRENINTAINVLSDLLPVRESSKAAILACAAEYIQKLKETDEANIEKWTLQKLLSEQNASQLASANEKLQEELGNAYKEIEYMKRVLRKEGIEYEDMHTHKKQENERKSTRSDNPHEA
Method: competition protein-binding microarray
Form: double-stranded DNA, one strand shown
Matrix: in vitro
Concentration: 2 µM
Setting: whole 60-bp probe, lowest competitor level
Added: Pho4 competitor, 0.05 µM
Direction: higher = stronger binding
Endpoint: fluorescence intensity
Strand = CGTTAAGTAGCCCATCACGCAGCAAGACCGCGGCCCGTCTTGATTCGCTTGACGCTGCTG; value = 68.2 a.u.
Strand = GCTTTTCCTAACGCGAACGTGCAAAGCATCGTTATTGTCTTGATTCGCTTGACGCTGCTG; value = 91.1 a.u.
Strand = ACTCTTGGCCAAAGACCCGTGGTGAAGCCATGAATCGTCTTGATTCGCTTGACGCTGCTG; value = 70 a.u.
Strand = GGAGCAGGCTCAGAGAATGTGACGAAATTCGCTTTAGTCTTGATTCGCTTGACGCTGCTG; value = 69.7 a.u.

Single results of other studies
Substance = PhoQ, residues 284 288 289 292 302 303 ASVMEA; target = PhoP, residues 12 14 15 18 19 AQALL (Escherichia coli, UniProt P23836); test = Sort-seq, refers to: YFP reporter; system = E. coli; setting = PhoQ-PhoP variant library, added: 10 µM Mg2+; how to read = baseline: high Mg2+ state, higher = stronger signaling; endpoint = fold induction; value = 2.17

Repeated from above (series 1):
Strand = AGCGTGCG; value = 0.43
